Published values gathered from unrelated publications.
Compare with care: the assays were run in different laboratories.
B1: DTYMK (Homo sapiens, UniProt P23919); chain MAARRGALIVLEGVDRAGKSTQSRKLVEALCAAGHRAELLRFPERSTEIGKLLSSYLQKKSDVEDHSVHLLFSANRWEQVPLIKEKLSQGVTLVVDRYAFSGVAFTGAKENFSLDWCKQPDVGLPKPDLVLFLQLQLADAAKRGAFGHERYENGAFQERALRCFHQLMKDTTLNWKMVDASKSIEAVHEDIRVLSEDAIRTATEKPLGELWK
B2: FNO G29S (Thermobifida fusca, UniProt Q47RA9); chain MIMIMASKSSPHDLPDVSGLSIAVLGGTSDQGRGLARRFAMAGHEVILGSRSAERAQAVAAELGEGLPVRGMDNAGAAEAGDVVIVAVPWDGHRALLESLKDVLAGKIVVDCVNPLGFDKRGAYALPVEEGSAAEQAAAILPDSRVVAAFHHVSAVLLLDPEVEKVDLDVLVLGDDREATDVVRALAARIPGVRGVYGGRLRNAHQVEAFTANLISINRRYKAHAGIRITDI
B3: genB3 A452T/L401C/Q310N (Micromonospora echinospora, UniProt Q2MG50); chain MDSANLTNRGLVERARRVTAAENYDIGTRFSAMIQSGEGAWLTDVEGNRYVDLTASSGTIILGHRNQAVTEAITRQIRDFGTAFASTLSVPRVELAERLCERYECAEKVVFHKTGSEGTAMAARLARAATGRELILSCGYHGWHEWQLAGETFGYQQTTGVVGFGYNEKALAKMLEAFGNEVAGVLISPELLYFDVEFYQRMYALCARYDVPFMMDEVYTGFRAGPKGVHGLGVPADVVVVSKGLANGHSLAAVMGRRDIIDAYDVSGINGTYTREVPPMAAAMAVLDVLDTPGVYEHAEAMGRRLADGMREILTGEGIPNWVGGPALMFDTVLPNDDLGWEIYKTAHDFGVYFEDSGTQCVTTAFDEAAVDHALTAFRKATRQVIADRPDIAPTSGGELTEERKLDFAEETFGGLLRDDERTNALIDETIEKVVNRDRSIKPVLIPAQN
B4: enzyme (Streptomyces venezuelae, UniProt Q9ZGI2); chain SGADTGAGAGMFRALFRQAVEDDRYGEFLDVLAEASAFRPQFASPEACSERLDPVLLAGGPTDRAEGRAVLVGCTGTAANGGPHEFLRLSTSFQEERDFLAVPLPGYGTGTGTGTALLPADLDTALDAQARAILRAAGDAPVVLLGHSGGALLAHELAFRLERAHGAPPAGIVLVDPYPPGHQEPIEVWSRQLGEGLFAGELEPMSDARLLAMGRYARFLAGPRPGRSSAPVLLVRASEPLGDWQEERGDWRAHWDLPHTVADVPGDHFTMMRDHAPAVAEAVLSWLDAIEGIEGAGK
B5: protein (Thermotoga neapolitana, UniProt B9K712); chain MKMLYDLAKKRKTVRRFKKEKPPLEDLIYSLKVANEAPSGMNAQPWRFLIVEDEKLKGQIRRVCERSEKTFYENVRGRLKEWLDEKRFTWRKPFLKEAPYLLLVFSEKSAPYSRESVWLAVGYLLLALEEKGLGSVPYTPPDFREVEKLVNTPSELRLEVILPVGYPDDPKPKYPRNEVIVRYNTF
B6: enzyme (Astragalus mongholicus, UniProt A0A977WMR2); chain MDGKGEDKPLKLYFIPYLAPGHMIPLCAMATLFASKGHHVTIITTPFNAKTLQKSIPSSQSKQHLHLHTVPFPSQEVSLPDGIENLSATTNLDNLVKVYQATTLLRPPIENFVLQNPPDCIVADFLFPWVDELANNLKIPRFAFNGFSLFAICAIESVKKHSLYSSTSFSIPDLPHTITMNASPPKQMSEMLQPLLDTELKSNGLIVNNFVELDGEEYIEHYEKTTGHKAWHLGPASLIRRSIEEKVESGQESAVSVHECLSWLNSKRVNSVVYICFGSLCHFPDKQLYEIACGIEASGHEFIWVVPEKKGKEDESEEEKEKWLPKGFQFQNQEKGLIIRGWAPQVLILSHPAVGAFLTHCGWNSTVEAVSFGIPMITWPVHGEQFYNEKLITQVRGIGVEVGAAEWTAVGFGEREKIVSRDSIQKAVERLMDGGDEAENIRRLAREFGDKAKLAVQEGGSSHKNLTTLIDDLKRLRDCKLS
B7: PPIP5K2 (Homo sapiens, UniProt O43314); chain MSEAPRFFVGPEDTEINPGNYRHFFHHADEDDEEEDDSPPERQIVVGICSMAKKSKSKPMKEILERISLFKYITVVVFEEEVILNEPVENWPLCDCLISFHSKGFPLDKAVAYAKLRNPFVINDLNMQYLIQDRREVYSILQAEGILLPRYAILNRDPNNPKECNLIEGEDHVEVNGEVFQKPFVEKPVSAEDHNVYIYYPTSAGGGSQRLFRKIGSRSSVYSPESNVRKTGSYIYEEFMPTDGTDVKVYTVGPDYAHAEARKSPALDGKVERDSEGKEVRYPVILNAREKLIAWKVCLAFKQTVCGFDLLRANGQSYVCDVNGFSFVKNSMKYYDDCAKILGNIVMRELAPQFHIPWSIPLEAED
B8: curN (Lyngbya majuscula, UniProt Q6DND9); chain AGVPVAGRAQSQPPLQLPISSEFPFAKRTVEVEGATIAYVDEGSGQPVLFLHGNPTSSYLWRNIIPYVVAAGYRAVAPDLIGMGDSAKPDIEYRLQDHVAYMDGFIDALGLDDMVLVIHDWGSVIGMRHARLNPDRVAAVAFMEALVPPALPMPSYEAMGPQLGPLFRDLRTADVGEKMVLDGNFFVETILPEMGVVRSLSEAEMAAYRAPFPTRQSRLPTLQWPREVPIGGEPAFAEAEVLKNGEWLMASPIPKLLFHAEPGALAPKPVVDYLSENVPNLEVRFVGAGTHFLQEDHPHLIGQGIADWLRRNKPHAS
Chain of UniProt Q6PIY7 (whole entry, looked up): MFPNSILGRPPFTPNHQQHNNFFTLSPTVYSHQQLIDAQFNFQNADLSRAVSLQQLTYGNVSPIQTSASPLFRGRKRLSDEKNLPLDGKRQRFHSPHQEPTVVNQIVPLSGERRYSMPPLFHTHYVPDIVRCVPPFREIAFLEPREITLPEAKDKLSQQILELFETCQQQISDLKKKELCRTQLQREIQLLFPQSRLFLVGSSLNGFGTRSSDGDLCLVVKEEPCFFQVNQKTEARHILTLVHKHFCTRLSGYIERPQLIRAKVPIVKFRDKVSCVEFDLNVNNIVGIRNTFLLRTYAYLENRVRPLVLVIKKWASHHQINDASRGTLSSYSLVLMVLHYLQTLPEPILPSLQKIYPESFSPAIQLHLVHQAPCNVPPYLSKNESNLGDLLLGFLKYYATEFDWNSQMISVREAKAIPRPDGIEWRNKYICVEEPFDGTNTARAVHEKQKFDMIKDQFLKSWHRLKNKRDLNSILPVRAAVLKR

B1 (DTYMK)
Km (Cc1cn([C@H]2C[C@H](O)[C@@H](COP(=O)(O)O)O2)c(=O)[nH]c1=O; steady-state kinetics; together with: ATP 2 mM, Mg2+ 2 mM): 20 µM

enzyme (Viola tricolor, UniProt A0AA51VI44)
Km (O=C(CC(=O)c1c(O)cc(O)c([C@@H]2O[C@H](CO)[C@@H](O)[C@H](O)[C@H]2O)c1O)c1ccc(O)cc1; steady-state kinetics; pH 8, 37 °C): 18 µM

B2 (FNO G29S)
Km (NC(=O)C[n+]1cccc(C(N)=O)c1; steady-state kinetics; pH 8, 25 °C, together with: F420H2 40 µM): 18000 µM

RNA 1 GGAGGAUGUUAAUUGGCGUGUCUUGUCUGCAACGGUAUUC / RNA 2 GAAUACCGUUGCAGACAAGACACGCCAAUUAACAUCCUCC (dsRNA)
binding (EIF2AK2 1-185 F41W (Homo sapiens, UniProt P19525); tryptophan fluorescence anisotropy; double-stranded RNA; 1 µM): binds

B3 (genB3 A452T/L401C/Q310N)
Km (CN[C@@H]1[C@@H](O)[C@@H](O[C@@H]2[C@@H](O)[C@H](O[C@H]3O[C@H](CN)[C@@H](O)[C@H](OP(=O)(O)O)[C@H]3N)[C@@H](N)C[C@H]2N)OC[C@]1(C)O; steady-state kinetics; 30 °C): 440 µM

B4 (enzyme)
Km (CC[C@@H](O)[C@H](C)/C=C/C(=O)[C@H](C)C[C@H](C)[C@H](O)[C@@H](C)C(=O)SCCNC(C)=O; steady-state kinetics): 4060 µM

B5 (protein)
Km (N[C@@H](Cc1ccc(O)c(Cl)c1)C(=O)O; steady-state kinetics; pH 7.4, 60 °C): 5 µM

TENT2 (Homo sapiens, UniProt Q6PIY7)
Km (Nc1ncnc2c1ncn2[C@@H]1O[C@H](COP(=O)(O)OP(=O)(O)OP(=O)(O)O)[C@@H](O)[C@H]1O; steady-state kinetics; pH 8, 37 °C, together with: Mg2+): 0.229 µM

B6 (enzyme)
Km (CC(C)(O)[C@@H]1CC[C@](C)([C@H]2[C@@H](O)C[C@@]3(C)[C@@H]4C[C@H](O[C@@H]5O[C@H](CO)[C@@H](O)[C@H](O)[C@H]5O)[C@H]5C(C)(C)[C@@H](O)CC[C@@]56C[C@@]46CC[C@]23C)O1; steady-state kinetics): 86 µM

B7 (PPIP5K2)
Km (O=P(O)(O)O[C@@H]1[C@@H](OP(=O)(O)O)[C@@H](OP(=O)(O)O)[C@@H](OP(=O)(O)OP(=O)(O)O)[C@H](OP(=O)(O)O)[C@H]1OP(=O)(O)O; steady-state kinetics): 0.11 µM

B8 (curN)
Km (CC1=[N+]2C(=C(CCl)c3ccc(C)n3[B-]2(F)F)C=C1; steady-state kinetics; pH 8, 30 °C): 0.23 µM

Repeated from above:
B3 (genB3 A452T/L401C/Q310N)
Km (CN[C@@H]1[C@@H](O)[C@@H](O[C@@H]2[C@@H](O)[C@H](O[C@H]3O[C@H](CN)[C@@H](O)[C@H](OP(=O)(O)O)[C@H]3N)[C@@H](N)C[C@H]2N)OC[C@]1(C)O; steady-state kinetics; 30 °C): 440 µM
